Measurements of several laboratories.
Each line is one published result; not all experiments were run side by side. “And” joins repeats or separate records; there may be more than shown. ± gives the spread as reported.

SMILES | cell line | assay | system | setting | how to read | endpoint | result
O=c1n(CCNCCOS(=O)(=O)c2ccccc2)c(=O)n(S(=O)(=O)c2ccccc2)c(=O)n1S(=O)(=O)c1ccccc1 | A549 | cell growth or viability, MTT | – | 12.5 µg/mL, 24 h | – | viability | 62.1%
O=C(O)c1ccc(-c2nc(-c3ccccc3Cl)c3sccn23)cc1 | HEL | flow cytometry | – | concentration not given | baseline: cells | sub-G0 cells | 2.15% and 1.57% and 2.51%
O=C(C[Se]C(=O)c1cc2ccccc2o1)Nc1cccc(C(F)(F)F)c1 | NCI60 leukaemia subpanel | NCI60 five-dose screen | – | – | – | CC50 | 10.9 µM
CCCCCCCCCCCCCC(=O)N[C@@H](CCCNC(=N)N)C(=O)N[C@@H](Cc1c[nH]c2ccccc12)C(=O)N[C@@H](CCCCN)C(=O)N[C@H](C(=O)N[C@@H](Cc1ccccc1)C(=O)N[C@@H](CCCCN)C(=O)N[C@@H](CCCCN)C(=O)N[C@H](C(=O)N[C@@H](CCC(=O)O)C(=O)N[C@@H](CCCCN)C(=O)N[C@H](C(=O)NCC(=O)N[C@@H](CCC(N)=O)C(=O)N[C@@H](CC(N)=O)C(=O)N[C@H](C(=O)N[C@@H](CCCNC(=N)N)C(=O)N[C@@H](CC(=O)O)C(=O)NCC(=O)N[C@H](C(=O)N[C@H](C(=O)N[C@@H](CCCCN)C(=O)N[C@@H](C)C(=O)NCC(=O)N1CCC[C@H]1C(=O)N[C@@H](C)C(=O)N[C@H](C(=O)N[C@@H](C)C(=O)N[C@H](C(=O)N[C@H](C(=O)NCC(=O)N[C@@H](CCC(N)=O)C(=O)N[C@@H](C)C(=O)N[C@@H](C)C(=O)N[C@H](C(=O)N[C@H](C(N)=O)[C@@H](C)CC)[C@@H](C)O)C(C)C)C(C)C)C(C)C)C(C)C)[C@@H](C)CC)[C@@H](C)CC)C(C)C)[C@@H](C)CC)[C@@H](C)CC | MX1 | trypan blue exclusion | – | 6 µM, 24 h | – | dead cells | > 80%
Cc1cc(Oc2nc(N3CC[C@@H](c4ccncc4)C3)ncc2F)[nH]n1 | MV4-11 | cell proliferation | blood cancer | – | – | IC50 | 4.68 µM
CC(C)C[C@H](NC(=O)[C@H](CC(=O)O)NC(=O)CNC(=O)[C@@H](N)CCCNC(=N)N)C(=O)N[C@@H](C)C(=O)N[C@H](C(=O)N[C@@H](CC(C)C)C(=O)N[C@@H](CCCNC(=N)N)C(=O)N[C@@H](CCC(N)=O)C(=O)N[C@@H](CC(C)C)C(=O)N[C@@H](C)C(=O)N[C@@H](CCC(N)=O)C(=O)N[C@@H](CCC(=O)O)C(=O)N[C@@H](CC(=O)O)C(=O)NCC(=O)N[C@H](C(=O)N[C@H](C(=O)NCC(=O)N[C@H](C(=O)N[C@@H](CCCNC(=N)N)C(=O)NCCOCCOCCOCCOCCOCCOCCOCCOCCOCCOCCOCCOCCC(=O)N[C@@H](CS)C(N)=O)C(C)C)C(C)C)C(C)C)[C@@H](C)O | PC-3 prostate cancer | phage binding | – | – | baseline: targeting over control phage | selectivity ratio | 0.8 ± 0.26
CC(C)CC(O)(CC(C)C)c1cn(C(=O)N2CCCC2)nn1 | mouse T-cells | SILAC proteomics, refers to: SKP1A | – | 1 nM, 6 h, unit not given | baseline: DMSO | protein level | 1.04
CC(C)[C@H](NC(=O)[C@H](CCCNC(=N)N)NC(=O)[C@@H]1CCCN1C(=O)[C@@H](NC(=O)[C@H](C)NC(=O)[C@H](Cc1ccc(O)cc1)NC(=O)[C@H](CCC(N)=O)NC(=O)[C@H](CCCCN)NC(=O)[C@H](CCCNC(=N)N)NC(=O)[C@@H]1CCCN1C(=O)[C@H](CCC(=O)O)NC(=O)[C@@H](NC(=O)[C@H](C)N)[C@@H](C)O)[C@@H](C)O)C(=O)N[C@@H](Cc1ccccc1)C(=O)N[C@@H](Cc1c[nH]c2ccccc12)C(=O)N[C@H](C(=O)N[C@@H](CC(=O)O)C(=O)N[C@@H](C)C(=O)N1CCC[C@H]1C(=O)NCC(=O)NCCOCCOCCOCCOCCOCCOCCOCCOCCOCCOCCOCCOCCC(=O)N[C@@H](CS)C(N)=O)[C@@H](C)O | Calu-3 | phage binding | – | – | baseline: targeting over control phage | selectivity ratio | 0.73 ± 0.11
CC(C)(C)C(=O)OCOP(=O)(OCOC(=O)C(C)(C)C)C1CCCN(O)C1=O (stereo not drawn) | RXF 393 | – | – | – | – | GI50 | 0.36 µM

Some of these lines once more:
SMILES | cell line | assay | system | setting | how to read | endpoint | result
O=C(C[Se]C(=O)c1cc2ccccc2o1)Nc1cccc(C(F)(F)F)c1 | NCI60 leukaemia subpanel | NCI60 five-dose screen | – | – | – | CC50 | 10.9 µM
